Results collected from several papers.
A part holds a random share of what one study measured. Substitutions count along the parent as printed.

Set 1
Target: Interferon regulatory factor 3, full length, phosphomimetic (IRF3, Homo sapiens, UniProt Q14653, residues 1-427, S386D/S396D/S398D/S402D/T404D/S405D)
Method: protein-binding microarray
Form: double-stranded DNA, one strand shown
Sample: in vitro
Tested at: 2540 nM top
Setting: 60-bp whole probe
Added: salmon DNA 0.4 mg/ml
Baseline: random background probes
Direction: higher = stronger binding
Constant ends, left off below: GCCTAGCAC … GTCTTGATTCGCTTGACGCTGCTG
Residues (chain): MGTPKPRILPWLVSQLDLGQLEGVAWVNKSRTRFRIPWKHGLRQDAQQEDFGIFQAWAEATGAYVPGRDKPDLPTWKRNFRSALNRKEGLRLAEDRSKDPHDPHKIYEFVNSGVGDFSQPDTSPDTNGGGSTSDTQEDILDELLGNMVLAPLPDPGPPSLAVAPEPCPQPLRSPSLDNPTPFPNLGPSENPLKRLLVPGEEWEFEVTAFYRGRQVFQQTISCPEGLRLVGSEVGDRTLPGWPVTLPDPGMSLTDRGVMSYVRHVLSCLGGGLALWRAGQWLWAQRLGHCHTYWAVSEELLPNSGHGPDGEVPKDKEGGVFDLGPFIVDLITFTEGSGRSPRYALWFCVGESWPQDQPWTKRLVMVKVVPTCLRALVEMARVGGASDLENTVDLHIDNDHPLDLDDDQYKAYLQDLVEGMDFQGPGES
Strand | fitted relative affinity [z-score]
GACGGTATCCACTATCGGGACGTGCTA | 1.5
TCATTTTATGCTTTCTTACTGTGCTAG | 1.83
TCAACTTTTATTTTCAGACTGTGCTAG | 1.5
GAAAGCCTGCTGCCAGTCTGGTGCTAG | -0.831
TGATCCAAAAAGTGTGAGAAGTGCTAG | 0.773
TTATATATCGGGACTGGATTAGTGCTA | 0.349
TCATATATACCTGTATAACTGTGCTAG | 0.643
TCACATGTGCCTTTATAACTGTGCTAG | 0.468
TCACATTGAGATTTTCATACTGTGCTA | 0.295
GACGGTTTCGACACTGGGGAAGTGCTA | 3.35
TTAAGACTGGGACTGGGTTAGTGCTAG | -1.09
TTAGGTATCGACACTGGGCTAGTGCTA | 0.124
TTAGGTTTCCTTTCACTTTAGTGCTAG | 10.3
GGCGGTTTCGGTTTCGGGACGTGCTAG | 10.9
TTAGGTTCCCTTTACCTTTAGTGCTAG | 5.95
TCACCTTGAGGTTTTCTCACTGTGCTA | -0.0641
TACGGTATCCTTTTCCTGACGTGCTAG | 7.58
CTCTGGGGCTCCAGGGAGAAGTGCTAG | -1.34
TTAGGTAACGGGTTTCGGTTAGTGCTA | 2.97

Set 2
Target: RING finger protein unkempt homolog, zinc fingers 1-6, GST-SBP tag (UNK, Homo sapiens, UniProt Q9C0B0, residues 30-357)
UniProt Q9C0B0, sequence (30-357, looked up): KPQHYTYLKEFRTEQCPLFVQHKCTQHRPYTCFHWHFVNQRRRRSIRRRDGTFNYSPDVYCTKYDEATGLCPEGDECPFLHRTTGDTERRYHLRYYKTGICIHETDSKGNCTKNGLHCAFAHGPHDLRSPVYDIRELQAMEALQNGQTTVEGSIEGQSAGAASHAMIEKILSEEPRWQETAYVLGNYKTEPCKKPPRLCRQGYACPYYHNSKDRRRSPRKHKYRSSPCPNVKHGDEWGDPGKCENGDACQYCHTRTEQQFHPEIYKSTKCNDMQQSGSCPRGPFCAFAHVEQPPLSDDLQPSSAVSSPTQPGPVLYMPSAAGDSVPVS
Method: RNA Bind-n-Seq
Form: RNA
Sample: in vitro
Tested at: not given
Setting: RNA with constant flanks, human-mouse chimeric sites, ends assumed
Baseline: input RNA pool
Direction: higher = stronger binding
Constant ends, left off below: GGGAGUUCUACAGUCCGACGAUC … CAACAGAGGAUUGAGCAUCA
Strand | bound/input enrichment [ratio]
CCCUCCCGGGCCACCCAACCCCUCCCGGCUCCCCGCCGAGAUCCAGGUUUCUUCUGUUUUCAUAGCAAAUAAGAAAAAUGUUCUACGCACAUUUUGUCCUCAGUAAACGAGGGCCUCUGG | 0.713
UCCCAAAUUAUAAGGCAAGAAGGAGCCUUGAGACAAACACUCCACACACAGGGAAGGCGAUAACAUUGUACAUUGGUUUACAUUUUUUCCCCCUGUGGAUUUUUCUAUCCUAGUGCUUGC | 0.224
GACUUUGGAACUGGUCCUCGCAACGCAGCCUACUAUAGCCCUCAUGGACAUAUAUUAGUGCUGGCUGGAUUUGGAAAUCUUCGAGGACAAAUGGAAGUAUGGGAUGUUAAAAACUACAAG | 0.36
UUGCUACUGACUCCCUGGGUCAAGUUCCUGUGGGAAUCAUACAGGCAGUGUUUGGACCUUCUUAGAAACAAUUCUAGAGUAGAGCGCCUUUACCAUGAUAUCGCCCAGCAAGCUUUCAAA | 0.277
GCAGGAUCUUCUAAGUACCAGUGGGGCAUUAUGAAAUCCCUUGGGCUGUCUGAUGAAGACAUAGUGAAGUUUUCUGAAGCAGAGCACUGGCUUGAUUAUUUCCCACCACUGGCCGUUCAG | 0.125
UCAGAAGCUGUGCUGGGUCACUUUUCAUAUCCAGAUCCUUCACAGUGGACAGAUGAAGAACUGGGAAUCCCUCCUGAUGACGAGGACUGACACUGUAAACUCUCUGGACGAGUAGGAGCA | 0.886
UCUGGUCACACUCGUGUGUAUGGUGUUUGCUUUGUGGACACUUCACUGGGAAAGUUUUUCAUCGGCCAGUUUUCGGAUGACCGCCACUGUUCGAGAUUUAGGACGCUAGUGGCUCACUAU | 0.223
CUGAAAAACACAGAUAUCAAAGUUGUUGACUUUGGAAGUGCAACAUAUGAUGAUGAACAUCACAGUACUUUGGUGUCCACAAGGCACUACAGAGCUCCCGAGGUCAUUUUGGCUUUAGGU | 0.34

Set 3
Target: CCND3, cyclin fold, Cln2 fusion (human)
Method: yeast growth competition, sequencing
Sample: yeast
Setting: weak parent motif
Baseline: not given
Direction: higher = stronger binding
Starting sequence: HASPIN docking peptide (human); ASLRSVLFGLMNS
Substitution | normalised enrichment score
ASARSVLFGLMNS [L3A] | -0.129
ASLRSALFGLMNS [V6A] | -0.5
ASLRSVLFGLMAS [N12A] | 0.412
ASLRSVLFGLANS [M11A] | 0.713
ASLRSVAFGLMNS [L7A] | -0.11
ASLRSVLFALMNS [G9A] | -0.142

Set 4
Target: CEBPD, bZIP domain (human)
Method: DHFR protein complementation
Sample: yeast
Setting: single substitutions, most at no-binding floor
Baseline: wild-type JUN-FOS pair
Direction: higher = stronger binding
Starting sequence: JUN, bZIP domain (human); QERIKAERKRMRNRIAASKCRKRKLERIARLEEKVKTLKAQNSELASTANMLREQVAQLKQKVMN; partner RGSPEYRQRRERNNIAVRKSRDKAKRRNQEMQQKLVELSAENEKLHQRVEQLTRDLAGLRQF
Substitution | binding fitness
S47E | -1.33 natural log
V35Y | -1.51 natural log
Q58R | -1.42 natural log
L38W | -1.5 natural log
N42E | -1.49 natural log
K39Y | -1.42 natural log
E32Q | -1.34 natural log
T48R | -1.27 natural log
T37R | -1.35 natural log
E54K | -1.31 natural log
A29K | -1.35 natural log
E32F | -1.49 natural log
L45W | -1.48 natural log
K34A | -1.29 natural log

Set 5
Target: ABI1, truncated, D143A, DHFR fusion (Arabidopsis thaliana)
Method: DHFR PCA, deep sequencing
Sample: yeast
Setting: methotrexate growth selection, single substitutions
Added: (+)-ABA 4.8 µM
Baseline: wild-type fitted maximum
Direction: higher = stronger binding
Starting sequence: PYL1, truncated, DHFR fusion (Arabidopsis thaliana); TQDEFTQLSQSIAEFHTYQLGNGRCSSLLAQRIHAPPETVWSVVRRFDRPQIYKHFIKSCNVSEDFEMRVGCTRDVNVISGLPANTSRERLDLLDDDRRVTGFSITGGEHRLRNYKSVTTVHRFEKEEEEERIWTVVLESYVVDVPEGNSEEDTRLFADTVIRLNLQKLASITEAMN
Substitution | relative binding score
I105W | -8.01%
D75C | 71.8%
Q51T | 29.8%
E38C | 34.7%
E131I | 65.5%
T160K | 33.1%
D95K | -9.89%
E147W | 42.4%
S27P | 2.46%
Y53V | -6.38%
E127Y | 64.2%
L138Q | -18.4%
T101P | -6.93%
G71Y | 2.38%
G148I | -4.24%
A84S | 23.9%
L166G | -4.21%
I12W | 3.59%
L28N | 7.67%
V143Y | 3.06%
I105S | 26.2%
F103V | -5.59%
E152S | 67.1%

Excerpt of the above (set 1):
Strand | fitted relative affinity [z-score]
TCACATTGAGATTTTCATACTGTGCTA | 0.295
TCATTTTATGCTTTCTTACTGTGCTAG | 1.83
CTCTGGGGCTCCAGGGAGAAGTGCTAG | -1.34
GAAAGCCTGCTGCCAGTCTGGTGCTAG | -0.831
TTAGGTTCCCTTTACCTTTAGTGCTAG | 5.95
TTAGGTAACGGGTTTCGGTTAGTGCTA | 2.97
TGATCCAAAAAGTGTGAGAAGTGCTAG | 0.773
GGCGGTTTCGGTTTCGGGACGTGCTAG | 10.9
TACGGTATCCTTTTCCTGACGTGCTAG | 7.58
